{"data": "Results gathered from unrelated publications", "note": "Numbered parts are unrelated; each lists some results of a single study."}
{"data": "Set 1", "target": "Histone acetyltransferase KAT6A, both winged helices, GST fusion (KAT6A, Homo sapiens, UniProt Q92794, residues 1-181)", "technique": "protein binding microarray", "molecule type": "double-stranded DNA, one strand shown", "sample": "in vitro", "concentration": "not given", "setting": "8-mer, flanks averaged, mean of 2 arrays, mostly near background", "baseline": "not given", "direction": "higher = stronger binding", "Construct (chain)": "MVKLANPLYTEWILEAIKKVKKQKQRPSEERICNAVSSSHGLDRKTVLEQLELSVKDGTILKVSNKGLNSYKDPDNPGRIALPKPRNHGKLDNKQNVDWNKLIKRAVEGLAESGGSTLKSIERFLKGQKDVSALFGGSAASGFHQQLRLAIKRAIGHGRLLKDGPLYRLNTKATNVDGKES"}
{"Strand": "CCCGCATA", "E-score": 0.251}
{"Strand": "CGATAGAC", "E-score": 0.0587}
{"Strand": "ACACGCTA", "E-score": 0.176}
{"Strand": "AAAACGAT", "E-score": -0.156}
{"Strand": "CCTCTTAG", "E-score": -0.163}
{"Strand": "GACTGTCC", "E-score": 0.0373}
{"Strand": "CCACCGCG", "E-score": 0.258}
{"Strand": "TGCAGTAA", "E-score": -0.119}
{"Strand": "AAACGGTC", "E-score": 0.192}
{"Strand": "GGCGGGTA", "E-score": 0.199}
{"Strand": "ACAATCTC", "E-score": 0.026}
{"Strand": "CAAGGTTA", "E-score": -0.0558}
{"Strand": "CGGTGAGC", "E-score": 0.0741}
{"Strand": "GCACCTTA", "E-score": 0.0611}
{"Strand": "ACTTATCT", "E-score": -0.161}
{"Strand": "CGAGGACG", "E-score": 0.0911}
{"Strand": "GTACTAAA", "E-score": -0.087}
{"Strand": "CGTCGTGC", "E-score": 0.109}
{"Strand": "CCACATCG", "E-score": 0.151}
{"Strand": "CCTCCAGC", "E-score": -0.0983}
{"Strand": "ATAATACA", "E-score": -0.0667}
{"Strand": "CTGTGGGC", "E-score": -0.276}
{"Strand": "AGCGACAT", "E-score": 0.0603}
{"Strand": "CCTCCATC", "E-score": -0.211}
{"Strand": "AGGGAGCC", "E-score": -0.0199}
{"data": "Set 2", "target": "Max dimerization protein 1, bHLH-zipper, MAX partner unstated (MXD1, Homo sapiens, UniProt Q05195, residues 56-136)", "technique": "protein-binding microarray", "molecule type": "double-stranded DNA, one strand shown", "sample": "in vitro", "concentration": "not given", "setting": "k-mer, scored over probes, only values ≥0.25", "direction": "higher = stronger binding", "Construct (chain)": "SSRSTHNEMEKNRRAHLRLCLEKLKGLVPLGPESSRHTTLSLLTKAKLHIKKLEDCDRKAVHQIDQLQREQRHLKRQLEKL"}
{"Strand": "CGGGCACG", "E-score": 0.269}
{"Strand": "AAACCATG", "E-score": 0.366}
{"Strand": "AACACGTT", "E-score": 0.395}
{"Strand": "CACGCTGA", "E-score": 0.37}
{"Strand": "CGTGCTCC", "E-score": 0.31}
{"Strand": "CACGCGTC", "E-score": 0.42}
{"Strand": "ACCACGTC", "E-score": 0.262}
{"Strand": "ACGTGCGC", "E-score": 0.407}
{"Strand": "ACATGCCT", "E-score": 0.346}
{"Strand": "CCCGACCC", "E-score": 0.311}
{"Strand": "GTGTGGGA", "E-score": 0.284}
{"Strand": "AACGTGCA", "E-score": 0.383}
{"Strand": "CCCCGTCC", "E-score": 0.293}
{"Strand": "AACGTGGA", "E-score": 0.353}
{"Strand": "CACCCCCG", "E-score": 0.251}
{"Strand": "CCCGCCGC", "E-score": 0.279}
{"Strand": "CATGCATG", "E-score": 0.407}
{"Strand": "CATGAGGG", "E-score": 0.387}
{"Strand": "CGTGCCCC", "E-score": 0.379}
{"Strand": "CATGTTTA", "E-score": 0.399}
{"Strand": "ACACGCGA", "E-score": 0.405}
{"Strand": "AGTCATGC", "E-score": 0.353}
{"Strand": "GCACGCGC", "E-score": 0.384}
{"data": "Set 3", "target": "Prothrombin, mature alpha-thrombin (F2, Homo sapiens, UniProt P00734)", "technique": "aptamer microarray, sandwich", "molecule type": "DNA with 2'F-ANA", "sample": "in vitro", "concentration": "200 nM", "setting": "whole 15-mer aptamer, many near background", "together with": "Cy3 exosite-II aptamer, 400 nM", "direction": "higher = stronger binding", "strand": "GGTTGGTGTGGTTGG"}
{"Modification": "2'F-ANA at 1 2 3 4 5 6 7 10 11 15", "mean fluorescence intensity [a.u.]": 46.2}
{"Modification": "2'F-ANA at 2 3 6 8 9 10 11 14", "mean fluorescence intensity [a.u.]": 267}
{"Modification": "2'F-ANA at 1 2 3 4 7 8 9 11 13 15", "mean fluorescence intensity [a.u.]": 127}
{"Modification": "2'F-ANA at 1 3 5 6 8 9 10 12 14", "mean fluorescence intensity [a.u.]": 46.8}
{"Modification": "2'F-ANA at 2 3 4 5 6 7 8 10 11 13 14 15", "mean fluorescence intensity [a.u.]": 48.7}
{"Modification": "2'F-ANA at 1 2 4 7 11 13 15", "mean fluorescence intensity [a.u.]": 82.8}
{"Modification": "2'F-ANA at 1 3 6 7 8 11 13 14 15", "mean fluorescence intensity [a.u.]": 91.7}
{"Modification": "2'F-ANA at 1 3 4 7 8 10 11 12 15", "mean fluorescence intensity [a.u.]": 113}
{"Modification": "2'F-ANA at 1 2 6 7 8 9 11 14", "mean fluorescence intensity [a.u.]": 57.5}
{"Modification": "2'F-ANA at 2 3 4 5 6 8 9 10 11 12 14", "mean fluorescence intensity [a.u.]": 47}
{"Modification": "2'F-ANA at 3 7 9 10 12 13 14 15", "mean fluorescence intensity [a.u.]": 403}
{"Modification": "2'F-ANA at 2 4 8 9 10 14 15", "mean fluorescence intensity [a.u.]": 61.6}
{"Modification": "2'F-ANA at 1 2 3 4 5 7 11 12 13 15", "mean fluorescence intensity [a.u.]": 72.8}
{"Modification": "2'F-ANA at 3 5 6 9 13 14 15", "mean fluorescence intensity [a.u.]": 69.3}
{"Modification": "2'F-ANA at 3 4 10 11 12 14 15", "mean fluorescence intensity [a.u.]": 202}
{"Modification": "2'F-ANA at 1 2 3 5 8 9 11 13", "mean fluorescence intensity [a.u.]": 55.2}
{"Modification": "2'F-ANA at 7 11 12 13 14", "mean fluorescence intensity [a.u.]": 275}
{"Modification": "2'F-ANA at 1 7 9 14 15", "mean fluorescence intensity [a.u.]": 60.2}
{"Modification": "2'F-ANA at 1 2 6 10 11 12 14", "mean fluorescence intensity [a.u.]": 52.2}
{"Modification": "2'F-ANA at 2 5 6 9 13", "mean fluorescence intensity [a.u.]": 50.8}
{"Modification": "2'F-ANA at 1 2 5 7 8 13", "mean fluorescence intensity [a.u.]": 53.5}
{"Modification": "2'F-ANA at 1 2 4 6 7 8 9", "mean fluorescence intensity [a.u.]": 167}
{"Modification": "2'F-ANA at 1 8 9 11 12 14", "mean fluorescence intensity [a.u.]": 67.3}
{"Modification": "2'F-ANA at 1 7 8 9 10 12 13 15", "mean fluorescence intensity [a.u.]": 70.3}
{"Modification": "2'F-ANA at 2 4 5 6 7 9 10 11 12 13 15", "mean fluorescence intensity [a.u.]": 50.7}
{"data": "Set 4", "target": "Centromere-binding protein 1, full length, N-terminal tag (CBF1, Saccharomyces cerevisiae, UniProt P17106, residues 1-351)", "technique": "protein-binding microarray", "molecule type": "double-stranded DNA, one strand shown", "sample": "in vitro", "concentration": "0.8 µM", "setting": "whole 60-bp probe, no competitor", "direction": "higher = stronger binding", "all sequences stand within": "… GTCTTGATTCGCTTGACGCTGCTG", "UniProt P17106, sequence (whole entry, looked up)": "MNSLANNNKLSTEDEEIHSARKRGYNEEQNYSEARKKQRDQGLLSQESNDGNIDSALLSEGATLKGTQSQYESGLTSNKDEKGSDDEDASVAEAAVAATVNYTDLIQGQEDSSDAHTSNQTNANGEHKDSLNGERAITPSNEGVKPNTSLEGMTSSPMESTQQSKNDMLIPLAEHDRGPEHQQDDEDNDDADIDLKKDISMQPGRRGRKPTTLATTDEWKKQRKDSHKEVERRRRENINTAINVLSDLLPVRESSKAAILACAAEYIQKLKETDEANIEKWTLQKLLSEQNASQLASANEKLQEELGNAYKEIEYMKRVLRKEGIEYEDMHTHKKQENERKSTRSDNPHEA"}
{"Strand": "CTAGAACTCTTTCAACACCTGACGAATGTATAATTC", "fluorescence intensity [a.u.]": 865}
{"Strand": "GAAAATGAGTATCAACACGAGGAACAGTACAGGTAG", "fluorescence intensity [a.u.]": 607}
{"Strand": "CTAGGGTTATACCATCACGTGATAATAAATCCATTC", "fluorescence intensity [a.u.]": 33900}
{"Strand": "GAATTTTTCAACAGTCACGTGCGCATCTCCCTTTAG", "fluorescence intensity [a.u.]": 16700}
{"Strand": "GAATCTATAATTATGCAGGTGATGGGGTATCGATAG", "fluorescence intensity [a.u.]": 710}
{"Strand": "CTATAAATTATTGCGCACGTTTTTCGGTGTGGTTTC", "fluorescence intensity [a.u.]": 962}
{"Strand": "GAAATTTAAGGAGCCTACATCAGGACAGTAGTATAG", "fluorescence intensity [a.u.]": 536}
{"Strand": "GAACACGGAACGCACGTGGCGGGACTCGTAGGTTAG", "fluorescence intensity [a.u.]": 4290}
{"Strand": "GAATCCTCAATTTTTGACGTCATCTTCTTACGCTAG", "fluorescence intensity [a.u.]": 519}
{"Strand": "GAAAAATGTGTTGAAAACGTGCTAAACAACAATTAG", "fluorescence intensity [a.u.]": 786}
{"Strand": "CTACTAGTATATTATCACATGATATTTCTCAAATTC", "fluorescence intensity [a.u.]": 3030}
{"Strand": "CTATTTAACTAAACAATGGTGATGATATGTTAATTC", "fluorescence intensity [a.u.]": 567}
{"Strand": "CTACAATCCCGGGATGACGTCAAGATAGACAGTTTC", "fluorescence intensity [a.u.]": 505}
{"Strand": "CTATATTTTTGCGTGCACGAGTAATCTAGCGAATTC", "fluorescence intensity [a.u.]": 794}
{"Strand": "CCTAACTACTATAGTACTGATCAATAGCTTCGTACA", "fluorescence intensity [a.u.]": 530}
{"Strand": "CTATGTGCAAGACAACAGCTGACAAGATGATGGTTC", "fluorescence intensity [a.u.]": 657}
{"Strand": "CTATCCTTTTCACTTCACGTTCGCAGGGCTTTCTTC", "fluorescence intensity [a.u.]": 614}
{"Strand": "CTAGTATTCATTTCTCACCTGCCAATGCAAGAGTTC", "fluorescence intensity [a.u.]": 566}
{"Strand": "CCTAACTACTATAATCACCTTTTATAGCTTCGTACA", "fluorescence intensity [a.u.]": 534}
